# Published values of several laboratories.
# Each numbered part is a random draw from the data of one study; scales do not carry over between parts.

# Block 1
# Target: PABPC1L2, full length, GST fusion (mouse, UniProt A0ABA7IW68)
# Technique: RNAcompete
# Form: RNA
# Medium: in vitro
# Tested at: 20 nM
# Setting: 7-mer, probes averaged, single round
# Baseline: mean of 7-mers
# Direction: higher = stronger binding
# Target sequence (chain): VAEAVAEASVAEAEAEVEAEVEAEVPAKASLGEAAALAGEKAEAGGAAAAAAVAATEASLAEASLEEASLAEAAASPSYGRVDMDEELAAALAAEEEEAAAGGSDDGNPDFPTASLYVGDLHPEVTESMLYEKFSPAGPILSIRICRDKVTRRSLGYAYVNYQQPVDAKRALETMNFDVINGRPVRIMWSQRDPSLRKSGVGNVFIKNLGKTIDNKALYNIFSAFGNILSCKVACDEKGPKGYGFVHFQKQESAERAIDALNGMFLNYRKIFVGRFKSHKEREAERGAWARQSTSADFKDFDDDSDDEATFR
Oligonucleotide,7-mer Z-score
CCGUCUC,-0.394
UGUGCUC,-0.362
CAUAAAU,2.66
CUUACUC,-0.237
GGCCCGU,-0.128

# Block 2
# Target: Histone acetyltransferase KAT6A, both winged helices, GST fusion (KAT6A, Homo sapiens, UniProt Q92794, residues 1-181)
# Technique: protein binding microarray
# Form: double-stranded DNA, one strand shown
# Medium: in vitro
# Tested at: not given
# Setting: 8-mer, flanks averaged, mean of 2 arrays, mostly near background
# Baseline: not given
# Direction: higher = stronger binding
# Target sequence (chain): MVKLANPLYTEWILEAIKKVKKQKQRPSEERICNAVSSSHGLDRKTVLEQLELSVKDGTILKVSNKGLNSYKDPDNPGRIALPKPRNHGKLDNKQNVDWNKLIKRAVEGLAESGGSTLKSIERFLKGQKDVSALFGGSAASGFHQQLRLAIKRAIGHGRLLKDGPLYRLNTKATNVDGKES
Oligonucleotide,E-score
AGAATACC,-0.00492
AAAAATCG,-0.101
ACCCCCAC,-0.122
ACGAGGCT,-0.141
CTTCTGGC,-0.131
ACTTGTTG,-0.24
CAGGGCCA,-0.137
GAAGTGAC,0.075

# Block 3
# Target: Protein C-ets-1 (ETS1, Homo sapiens, UniProt P14921, residues 1-441, full length assumed)
# Technique: protein-binding microarray
# Form: double-stranded DNA, one strand shown
# Medium: in vitro
# Tested at: not given
# Setting: k-mer, scored over probes, only values ≥0.25
# Direction: higher = stronger binding
# Construct (chain): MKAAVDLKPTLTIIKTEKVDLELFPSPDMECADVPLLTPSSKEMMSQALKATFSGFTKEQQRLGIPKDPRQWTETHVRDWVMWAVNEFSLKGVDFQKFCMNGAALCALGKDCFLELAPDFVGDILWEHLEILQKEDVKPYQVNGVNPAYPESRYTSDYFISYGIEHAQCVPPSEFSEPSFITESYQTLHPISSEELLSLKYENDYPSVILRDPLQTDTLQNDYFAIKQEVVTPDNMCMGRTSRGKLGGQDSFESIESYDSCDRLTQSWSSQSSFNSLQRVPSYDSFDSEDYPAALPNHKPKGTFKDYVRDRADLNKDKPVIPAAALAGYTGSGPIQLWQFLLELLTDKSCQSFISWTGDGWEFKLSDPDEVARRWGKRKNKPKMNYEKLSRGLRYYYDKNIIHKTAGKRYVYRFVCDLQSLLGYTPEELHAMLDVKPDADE
Oligonucleotide,E-score
ATCCGCAT,0.351
AGAGGACG,0.284
GAAGCTTC,0.311
GGAAATCA,0.381
CGGGAAGC,0.402

# Further values, each from its own experiment
Molecule,target,assay,test system,conditions,how to read,measurement,value
"PhoQ, residues 284 288 289 292 302 303 DDMDFR","PhoP, residues 12 14 15 18 19 AGCRL (Escherichia coli, UniProt P23836)","Sort-seq, item: YFP reporter",E. coli,"PhoQ-PhoP variant library, together with: 10 µM Mg2+","baseline: high Mg2+ state, higher = stronger signaling",fold induction,0.82

# Excerpt of the above (block 2):
Oligonucleotide,E-score
AGAATACC,-0.00492
